Measured values collected from several papers.
Each numbered part is a random draw from the data of one study; scales do not carry over between parts.
Chain of UniProt Q99558 (whole entry, looked up): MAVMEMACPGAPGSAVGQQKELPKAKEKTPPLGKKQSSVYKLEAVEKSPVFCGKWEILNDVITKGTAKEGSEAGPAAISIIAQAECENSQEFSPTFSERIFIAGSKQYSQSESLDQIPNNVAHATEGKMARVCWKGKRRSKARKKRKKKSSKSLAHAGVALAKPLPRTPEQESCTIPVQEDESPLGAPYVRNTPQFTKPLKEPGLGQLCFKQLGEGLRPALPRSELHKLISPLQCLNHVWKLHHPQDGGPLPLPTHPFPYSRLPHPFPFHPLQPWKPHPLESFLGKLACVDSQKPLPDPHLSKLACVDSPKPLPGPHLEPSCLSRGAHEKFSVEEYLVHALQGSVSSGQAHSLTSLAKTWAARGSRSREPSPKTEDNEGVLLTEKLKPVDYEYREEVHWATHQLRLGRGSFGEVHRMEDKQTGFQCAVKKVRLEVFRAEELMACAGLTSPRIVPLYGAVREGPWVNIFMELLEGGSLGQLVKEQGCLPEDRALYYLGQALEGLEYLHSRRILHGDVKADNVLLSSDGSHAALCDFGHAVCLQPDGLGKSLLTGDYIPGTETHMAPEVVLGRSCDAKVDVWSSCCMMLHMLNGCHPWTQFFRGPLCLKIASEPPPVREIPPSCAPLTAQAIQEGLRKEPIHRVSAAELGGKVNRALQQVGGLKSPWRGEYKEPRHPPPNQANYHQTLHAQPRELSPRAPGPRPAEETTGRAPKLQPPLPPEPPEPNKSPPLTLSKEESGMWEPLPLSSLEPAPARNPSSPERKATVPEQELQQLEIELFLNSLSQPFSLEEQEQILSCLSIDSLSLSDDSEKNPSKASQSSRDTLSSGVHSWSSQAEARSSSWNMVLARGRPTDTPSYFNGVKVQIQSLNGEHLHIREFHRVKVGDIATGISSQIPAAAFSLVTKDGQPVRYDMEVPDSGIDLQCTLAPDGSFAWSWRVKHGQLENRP
Chain of UniProt Q9BRS2 (whole entry, looked up): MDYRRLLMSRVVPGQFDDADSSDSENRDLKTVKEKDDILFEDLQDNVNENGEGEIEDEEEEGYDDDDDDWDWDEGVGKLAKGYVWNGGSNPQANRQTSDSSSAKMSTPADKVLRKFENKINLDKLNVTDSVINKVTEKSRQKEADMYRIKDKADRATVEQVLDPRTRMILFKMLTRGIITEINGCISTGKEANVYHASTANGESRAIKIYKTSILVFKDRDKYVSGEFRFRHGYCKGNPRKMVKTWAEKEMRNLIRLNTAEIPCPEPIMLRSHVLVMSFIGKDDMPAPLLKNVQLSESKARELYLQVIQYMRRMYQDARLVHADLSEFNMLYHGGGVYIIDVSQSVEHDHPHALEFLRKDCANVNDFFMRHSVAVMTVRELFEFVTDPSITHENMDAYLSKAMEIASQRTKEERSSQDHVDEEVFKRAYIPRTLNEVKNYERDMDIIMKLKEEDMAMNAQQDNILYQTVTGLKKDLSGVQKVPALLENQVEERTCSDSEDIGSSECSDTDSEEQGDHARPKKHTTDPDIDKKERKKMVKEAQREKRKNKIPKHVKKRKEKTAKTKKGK
Chain of UniProt Q32MK0 (whole entry, looked up): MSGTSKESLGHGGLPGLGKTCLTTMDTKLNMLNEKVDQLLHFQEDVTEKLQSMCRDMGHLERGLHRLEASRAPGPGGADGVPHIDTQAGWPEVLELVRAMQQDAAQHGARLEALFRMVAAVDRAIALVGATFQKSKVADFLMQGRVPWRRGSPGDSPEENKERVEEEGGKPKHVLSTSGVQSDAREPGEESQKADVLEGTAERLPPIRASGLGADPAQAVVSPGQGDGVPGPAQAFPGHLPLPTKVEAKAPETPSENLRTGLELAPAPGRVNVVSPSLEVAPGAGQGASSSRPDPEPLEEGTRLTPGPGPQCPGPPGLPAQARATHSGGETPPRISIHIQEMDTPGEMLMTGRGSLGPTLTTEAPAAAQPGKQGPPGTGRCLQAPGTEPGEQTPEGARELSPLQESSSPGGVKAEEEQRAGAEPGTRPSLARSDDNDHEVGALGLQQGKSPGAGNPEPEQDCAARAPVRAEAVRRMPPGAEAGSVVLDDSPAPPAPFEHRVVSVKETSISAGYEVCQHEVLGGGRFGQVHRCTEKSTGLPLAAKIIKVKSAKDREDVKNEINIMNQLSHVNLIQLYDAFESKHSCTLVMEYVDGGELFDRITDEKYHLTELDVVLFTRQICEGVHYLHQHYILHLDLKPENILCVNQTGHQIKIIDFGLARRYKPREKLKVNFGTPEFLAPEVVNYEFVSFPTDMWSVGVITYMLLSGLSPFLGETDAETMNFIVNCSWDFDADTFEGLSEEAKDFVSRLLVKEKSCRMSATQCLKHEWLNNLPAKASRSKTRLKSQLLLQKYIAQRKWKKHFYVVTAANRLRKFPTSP
Chain of UniProt Q9HC98 (whole entry, looked up): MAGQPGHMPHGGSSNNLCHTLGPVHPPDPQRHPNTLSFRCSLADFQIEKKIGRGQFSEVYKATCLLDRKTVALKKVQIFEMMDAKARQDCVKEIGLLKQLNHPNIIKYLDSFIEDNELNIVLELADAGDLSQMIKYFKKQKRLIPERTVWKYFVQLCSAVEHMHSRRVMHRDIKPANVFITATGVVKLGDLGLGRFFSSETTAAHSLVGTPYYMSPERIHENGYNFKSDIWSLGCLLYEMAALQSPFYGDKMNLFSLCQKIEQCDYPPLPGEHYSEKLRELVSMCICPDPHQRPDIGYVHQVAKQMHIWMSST
Chain of UniProt O96017 (whole entry, looked up): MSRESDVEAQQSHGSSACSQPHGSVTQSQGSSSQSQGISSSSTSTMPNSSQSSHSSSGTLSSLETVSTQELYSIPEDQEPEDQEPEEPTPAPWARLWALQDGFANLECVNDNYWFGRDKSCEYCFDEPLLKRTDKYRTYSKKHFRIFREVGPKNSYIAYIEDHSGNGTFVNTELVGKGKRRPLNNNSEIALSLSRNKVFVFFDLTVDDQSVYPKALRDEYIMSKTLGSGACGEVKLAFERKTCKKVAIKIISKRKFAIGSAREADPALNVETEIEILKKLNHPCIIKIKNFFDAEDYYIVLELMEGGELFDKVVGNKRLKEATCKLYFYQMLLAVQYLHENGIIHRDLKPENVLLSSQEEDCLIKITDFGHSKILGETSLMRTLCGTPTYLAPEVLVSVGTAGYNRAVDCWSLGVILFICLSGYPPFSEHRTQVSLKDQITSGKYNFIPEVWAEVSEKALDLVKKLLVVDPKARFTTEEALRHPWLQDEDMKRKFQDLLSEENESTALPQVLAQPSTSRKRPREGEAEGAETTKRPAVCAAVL
Chain of UniProt Q96PY6 (whole entry, looked up): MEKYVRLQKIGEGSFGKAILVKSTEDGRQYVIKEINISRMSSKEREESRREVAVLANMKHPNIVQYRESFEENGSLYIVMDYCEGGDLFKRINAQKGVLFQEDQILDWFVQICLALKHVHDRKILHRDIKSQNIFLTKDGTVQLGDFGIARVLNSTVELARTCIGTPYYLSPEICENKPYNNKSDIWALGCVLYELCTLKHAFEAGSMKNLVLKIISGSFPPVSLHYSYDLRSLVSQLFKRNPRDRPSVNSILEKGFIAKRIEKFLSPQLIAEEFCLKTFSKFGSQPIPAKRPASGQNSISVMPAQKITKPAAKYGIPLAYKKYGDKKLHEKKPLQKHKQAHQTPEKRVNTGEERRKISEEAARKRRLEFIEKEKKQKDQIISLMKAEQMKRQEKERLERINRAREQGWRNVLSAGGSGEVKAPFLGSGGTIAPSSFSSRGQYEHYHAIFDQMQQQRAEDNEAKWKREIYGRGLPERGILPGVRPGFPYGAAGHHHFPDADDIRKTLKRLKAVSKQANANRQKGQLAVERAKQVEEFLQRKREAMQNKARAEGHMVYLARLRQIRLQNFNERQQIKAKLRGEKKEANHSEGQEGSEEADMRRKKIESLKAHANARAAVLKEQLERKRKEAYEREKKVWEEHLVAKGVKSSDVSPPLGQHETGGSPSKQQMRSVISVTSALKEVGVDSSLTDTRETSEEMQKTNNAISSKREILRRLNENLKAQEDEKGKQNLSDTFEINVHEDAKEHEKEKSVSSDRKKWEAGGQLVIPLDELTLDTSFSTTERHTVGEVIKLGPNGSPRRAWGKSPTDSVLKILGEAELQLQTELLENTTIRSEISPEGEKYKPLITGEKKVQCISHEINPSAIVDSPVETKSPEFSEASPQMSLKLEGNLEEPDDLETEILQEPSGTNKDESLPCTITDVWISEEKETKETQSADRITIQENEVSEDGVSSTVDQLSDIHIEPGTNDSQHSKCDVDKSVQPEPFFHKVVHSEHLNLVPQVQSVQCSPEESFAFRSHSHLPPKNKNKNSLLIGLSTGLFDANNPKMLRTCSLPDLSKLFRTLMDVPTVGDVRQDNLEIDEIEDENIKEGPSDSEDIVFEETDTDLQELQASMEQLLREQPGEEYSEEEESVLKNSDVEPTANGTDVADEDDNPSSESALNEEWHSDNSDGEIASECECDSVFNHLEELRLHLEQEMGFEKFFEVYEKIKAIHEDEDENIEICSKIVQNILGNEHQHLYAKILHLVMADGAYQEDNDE
Chain of UniProt P10398 (whole entry, looked up): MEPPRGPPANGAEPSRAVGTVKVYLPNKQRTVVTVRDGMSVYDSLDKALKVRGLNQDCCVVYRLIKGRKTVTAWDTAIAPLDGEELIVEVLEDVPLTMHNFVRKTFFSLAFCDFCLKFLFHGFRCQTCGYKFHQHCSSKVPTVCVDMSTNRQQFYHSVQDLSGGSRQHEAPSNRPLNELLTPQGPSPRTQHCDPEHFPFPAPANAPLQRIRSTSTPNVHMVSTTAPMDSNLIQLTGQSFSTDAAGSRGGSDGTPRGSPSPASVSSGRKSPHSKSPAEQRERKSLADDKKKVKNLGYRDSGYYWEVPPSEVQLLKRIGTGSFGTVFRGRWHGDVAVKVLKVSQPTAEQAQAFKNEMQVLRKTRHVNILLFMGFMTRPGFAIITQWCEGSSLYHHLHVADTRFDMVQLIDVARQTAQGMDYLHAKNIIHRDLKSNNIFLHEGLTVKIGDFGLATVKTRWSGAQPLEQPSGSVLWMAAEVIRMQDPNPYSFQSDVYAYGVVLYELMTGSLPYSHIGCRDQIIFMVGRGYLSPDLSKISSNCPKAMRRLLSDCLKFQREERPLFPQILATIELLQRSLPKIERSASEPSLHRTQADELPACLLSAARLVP

Sample 1
Structure (SMILES): COc1cc(-c2cn(C3CCc4ccccc4N(CC(F)(F)F)C3=O)nn2)ccc1-n1ccc(C)n1 (stereo not shown)
Tested at: 1 µM
| target | effect on | method | remaining binding [%] |
| --- | --- | --- | --- |
| Serine/threonine-protein kinase 17A (STK17A, Homo sapiens, UniProt Q9UEE5) | cell-free assay | competition with immobilised ligand | 100 |
| Serine/threonine-protein kinase MRCK gamma (CDC42BPG, Homo sapiens, UniProt Q6DT37) |  | competition binding | 100 |
| Mitogen-activated protein kinase kinase kinase 12 (MAP3K12, Homo sapiens, UniProt Q12852) | cell-free assay | competition with immobilised ligand | 100 |
| Mitogen-activated protein kinase kinase kinase 20 (MAP3K20, Homo sapiens, UniProt Q9NYL2) | cell-free assay | competition with immobilised ligand | 85 |
| Serine/threonine-protein kinase Chk2 (CHEK2, Homo sapiens, UniProt O96017) | cell-free assay | competition with immobilised ligand | 100 |
| Serine/threonine-protein kinase RIO1 (RIOK1, Homo sapiens, UniProt Q9BRS2) | cell-free assay | competition with immobilised ligand | 100 |
| Myosin light chain kinase (MYLK3, Homo sapiens, UniProt Q32MK0) | cell-free assay | competition with immobilised ligand | 100 |

Sample 2
Target: PABPC1L2, full length, GST fusion (mouse, UniProt A0ABA7IW68)
Method: RNAcompete
Form: RNA
Sample: in vitro
Tested at: 20 nM
Notes: 7-mer, probes averaged, single round
Relative to: mean of 7-mers
Reading: higher = stronger binding
Target sequence (chain): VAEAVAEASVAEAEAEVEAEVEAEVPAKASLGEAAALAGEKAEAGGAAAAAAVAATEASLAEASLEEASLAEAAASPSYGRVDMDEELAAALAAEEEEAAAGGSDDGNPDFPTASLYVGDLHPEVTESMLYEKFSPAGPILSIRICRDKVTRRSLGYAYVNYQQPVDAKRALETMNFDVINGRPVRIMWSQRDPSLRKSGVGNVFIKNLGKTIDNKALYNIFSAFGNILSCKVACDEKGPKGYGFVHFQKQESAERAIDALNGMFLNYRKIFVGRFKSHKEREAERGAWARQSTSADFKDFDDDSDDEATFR
| Strand | 7-mer Z-score |
| --- | --- |
| UAGGAGC | -0.0337 |
| ACCGACA | 0.0696 |
| CAUGACU | -0.135 |
| UCAUCAC | -0.347 |
| UAAUACC | -0.179 |
| GGACAGC | 0.0696 |
| AACACUG | 0.213 |
| UAGCCUG | -0.22 |

Sample 3
Target: Fragile X messenger ribonucleoprotein 1, C-terminal low-complexity region (Fmr1, Mus musculus, UniProt P35922)
Method: RNA Bind-n-Seq
Form: RNA
Sample: in vitro
Tested at: 200 nM
Notes: whole 134-nt RNA, ends assumed
With: 150 mM KCl
Relative to: input library
Reading: higher = stronger binding
| Strand | log2 enrichment |
| --- | --- |
| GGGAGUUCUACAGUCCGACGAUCGUCCUGUGCUACACAUCGUAUGUACCGAAUCGGGGUGGGGAAAAAGGGGAAAAAGGGGAAAGUAUUAUGUUACGCCGUUCGGAUCUGCACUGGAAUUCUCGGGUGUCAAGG | 0.337 |
| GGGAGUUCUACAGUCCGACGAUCCAAGUCCUGUGCUACACAUCGUAUGUACCGAAUCGGGUUUUGGUUUUGGGUUUUGGAAAGUAUUAUGUUACGCCGUUCGGAUCUGCACUUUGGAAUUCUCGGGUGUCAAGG | -0.765 |
| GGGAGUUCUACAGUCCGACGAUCUCCUGUGCUACACAUCGUAUGUACCGAAUCAAACCCCCAAACCCCCCCAAACCCCCAAAAAAGUAUUAUGUUACGCCGUUCGGAUCUGCAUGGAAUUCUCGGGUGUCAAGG | -0.105 |
| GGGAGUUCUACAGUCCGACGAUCCUCAAGUCCUGUGCUACACAUCGUAUGUACCGAAUCGGCCCGGCCCGGCCCGGAAAGUAUUAUGUUACGCCGUUCGGAUCUGCACUUCCAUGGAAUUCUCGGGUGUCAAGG | -0.00865 |
| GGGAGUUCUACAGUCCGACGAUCCCUGUGCUACACAUCGUAUGUACCGAAUCGGGGUUUUUUGGGUUUUUUGGGGUUUUUUGGAAAGUAUUAUGUUACGCCGUUCGGAUCUGCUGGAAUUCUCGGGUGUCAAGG | -0.198 |
| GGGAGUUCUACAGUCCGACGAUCAGUCCUGUGCUACACAUCGUAUGUACCGAAUCGGGUGGGUUUUUUUGGGAAAAAGGGAAAGUAUUAUGUUACGCCGUUCGGAUCUGCACUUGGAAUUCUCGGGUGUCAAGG | 0.221 |
| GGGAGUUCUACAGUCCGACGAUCUCAAGUCCUGUGCUACACAUCGUAUGUACCGAAUCGUGUGUGUGUGUGUGUGUGUAAAGUAUUAUGUUACGCCGUUCGGAUCUGCACUUCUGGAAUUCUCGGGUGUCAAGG | 0.254 |
| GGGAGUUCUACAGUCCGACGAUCUCCUGUGCUACACAUCGUAUGUACCGAAUCAAAGUGUGUGUGUGAAAUGUGUGUGUGAAAAAAGUAUUAUGUUACGCCGUUCGGAUCUGCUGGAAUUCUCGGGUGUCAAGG | 0.0234 |

Sample 4
SMILES: CC(C)(C)n1nc(Cc2cccc3ccccc23)c2c(N)ncnc21
Effect on: enzyme activity
Action: inhibitor
Tested at: 0.5 µM
Relative to: control
| target | remaining activity [%] |
| --- | --- |
| MAP kinase-activated protein kinase 2 (MAPKAPK2, Homo sapiens, UniProt P49137) | 100 |
| Tyrosine-protein kinase ABL2 (ABL2, Homo sapiens, UniProt P42684) | 79 |
| Casein kinase I isoform gamma-2 (CSNK1G2, Homo sapiens, UniProt P78368) | 101 |
| Tyrosine-protein kinase JAK3 (JAK3, Homo sapiens, UniProt P52333) | 99.3 |
| Serine/threonine-protein kinase A-Raf (ARAF, Homo sapiens, UniProt P10398) | 93.6 |
| Mitogen-activated protein kinase kinase kinase 14 (MAP3K14, Homo sapiens, UniProt Q99558) | 102 |
| Fibroblast growth factor receptor 1 (FGFR1, Homo sapiens, UniProt P11362) | 73.8 |
| Tyrosine-protein kinase Mer (MERTK, Homo sapiens, UniProt Q12866) | 94.5 |
| Serine/threonine-protein kinase Nek1 (NEK1, Homo sapiens, UniProt Q96PY6) | 83.6 |
| Glycogen synthase kinase-3 beta (GSK3B, Homo sapiens, UniProt P49841) | 99.8 |
| Serine/threonine-protein kinase Nek6 (NEK6, Homo sapiens, UniProt Q9HC98) | 109 |
| Mitogen-activated protein kinase kinase kinase 5 (MAP3K5, Homo sapiens, UniProt Q99683) | 95.2 |
| Serine/threonine-protein kinase ULK2 (ULK2, Homo sapiens, UniProt Q8IYT8) | 96.1 |
| Macrophage-stimulating protein receptor (MST1R, Homo sapiens, UniProt Q04912) | 98.1 |

Some of these lines once more (sample 1):
| target | effect on | method | remaining binding [%] |
| --- | --- | --- | --- |
| Serine/threonine-protein kinase MRCK gamma (CDC42BPG, Homo sapiens, UniProt Q6DT37) |  | competition binding | 100 |
| Mitogen-activated protein kinase kinase kinase 12 (MAP3K12, Homo sapiens, UniProt Q12852) | cell-free assay | competition with immobilised ligand | 100 |
